Measured values collected from several papers.
Each line is one published result; not all experiments were run side by side.

NCCONC(=O)[C@@H]1CC[C@@H]2CN1C(=O)N2OS(=O)(=O)O — adverse event incidence (refers to: urinary occult blood positive; healthy Chinese men; intravenous, 2 g, treatment-emergent): 0%
CC(=O)O[C@H]1C(=O)[C@@]2(C)[C@H]([C@H](OC(=O)c3ccccc3)[C@]3(O)C[C@H](OC(=O)[C@H](O)[C@@H](NC(=O)c4ccccc4)c4ccccc4)C(C)=C1C3(C)C)[C@]1(OC(C)=O)CO[C@@H]1C[C@@H]2O — adverse event incidence (refers to: Diarrhoea; patients with advanced solid tumours; intravenous, dose not given, grade 3 and 4, possibly related to drug): 7%
CNC(=O)c1ccc(-c2cnc3ncc(Cc4ccc5ncccc5c4)n3n2)cc1F — adverse event incidence (phase 1 clinical trial, refers to: blood alkaline phosphatase increased; HCC expansion cohort; oral, 600 mg twice daily, grade 3 or 4): 0%
O=C1CCc2ccc(OCCCCN3CCN(c4cccc(Cl)c4Cl)CC3)cc2N1 — adverse event incidence (refers to: Hypotension; genotyped patients, CYP2D6 ultrarapid metabolizers; dose not given, long-acting oral or depot): 11%
Cc1cc(Nc2ccc(S(F)(F)(F)(F)F)cc2)n2nc(C(C)(F)F)nc2n1 — adverse event Chills (Plasmodium falciparum malaria patients; oral, 400 mg): 7.7%
Cc1c(C(=O)O)ccc2c3n(nc12)[C@@H]1[C@H](C3)N(CC2CC2)[C@@]2(C(=O)Nc3cc(Cl)ccc32)[C@H]1c1cccc(Cl)c1F — adverse event incidence (phase Ia trial, refers to: Dysgeusia; cancer patients; oral, dose not given): 20%
CC[C@H](C)CCCCC(=O)N[C@@H](CCN)C(=O)N[C@H](C(=O)N[C@@H](CCN)C(=O)N[C@H]1CCNC(=O)[C@H]([C@@H](C)O)NC(=O)[C@H](CCN)NC(=O)[C@H](CCN)NC(=O)[C@H](CC(C)C)NC(=O)[C@@H](Cc2ccccc2)NC(=O)[C@H](CCN)NC1=O)[C@@H](C)O — adverse event incidence (refers to: dry mouth; all subjects; intravenous, 0.75 mg/kg): 18.2%
Cc1c(Cl)c(C)[n+]([O-])c(Cl)c1-c1noc(-c2cc(O)c(O)c([N+](=O)[O-])c2)n1 — adverse drug reaction incidence (refers to: Presyncope; healthy Caucasian subjects; oral, 25 mg, 4 days): 0%
FC(F)(F)c1ccc(CNc2ccc(Cc3c[nH]c4ncc(Cl)cc34)cn2)cn1 — adverse event incidence (refers to: Hypertension; patients with advanced solid tumours; oral, dose not given, all grades, possibly related to drug): 24%
Cc1ccc(Sc2ccccc2N2CCNCC2)c(C)c1 — adverse event incidence (TEAE Acne; elderly women; oral, 10 mg single dose): 0%
